Experimental data gathered from unrelated publications.
Each line is one published result; not all experiments were run side by side. Several values in a cell are separate wells, animals, samples, runs or records. Numbers after ± are the reported error.

Structure (SMILES) | target or system | test | system | setting | scale | measurement | value
O=C(c1cc(Cc2n[nH]c(=O)c3ccccc23)ccc1F)N1CC(CNC2CC2)C1 | KATO III | colony formation | – | – | – | IC50 | 1.54 µM
C[C@H]1[C@H](OC(=O)CCC(=O)OCCC2CCN(CC(=O)Nc3ccc([N+](=O)[O-])c(C(F)(F)F)c3)CC2)O[C@@H]2O[C@@]3(C)CC[C@H]4[C@H](C)CC[C@@H]1[C@@]24OO3 | OVCAR-3 | cell growth or viability, CCK-8 | – | – | – | IC50 | 1.24 µM
C[C@@H]1COCCN1c1nc(NCc2cccnc2C(F)(F)F)c2cccnc2n1 | HepG2 spheroids | cytotoxicity | – | – | – | IC50 | > 250 µM
COC(=O)[C@@H](NC(=O)[C@@H](NC(=O)[C@@H](NC(=O)[C@@H]1CCCN1C(=O)[C@H](C)NC(=O)OC(C)(C)C)C(C)C)C(C)C)C(C)C | DU-145 | cell growth or viability, SRB | – | – | – | IC50 | 25.6 µM and 18.8 µM and 19.2 µM
CC(=O)[O][Pt]([NH2])([NH2])([Cl])([Cl])[O]C(=O)C(Cl)Cl | PSN1 | cell growth or viability, MTT | – | 72 h | – | IC50 | 0.94 µM
CCOc1ccccc1-n1c(CN2CCNCC2)nc2cc(Br)ccc2c1=O | PANC-1 | cell growth or viability, ATP luminescence | – | 72 h | – | IC50 | 0.39 µM
CC(=O)N[C@H](C(=O)N[C@@H](CCCNC(=N)N)C(=O)N[C@@H](CCCCN)C(=O)N[C@@H](CCCNC(=N)N)C(=O)N[C@H](C(=O)N[C@@H](CC(C)C)C(=O)N[C@@H](CCCNC(=N)N)C(=O)N[C@]1(C)CCCC=CCCC[C@@](C)(C(=O)N[C@@H](CCC(=O)O)C(=O)N[C@@H](CCCNC(=N)N)C(=O)N[C@@H](CCC(=O)O)C(=O)N[C@@H](CC(C)C)C(=O)N[C@H](C(=O)N[C@@H](CCC(=O)O)C(N)=O)C(C)C)NC(=O)[C@H](CC(C)C)NC(=O)[C@H](CC(C)C)NC1=O)[C@@H](C)O)C(C)C | H3255 (EGFR L858R) | cell viability | – | 18 h, serum-free | – | IC50 | > 100 µM
CC(C)C12OC1C1OC13C1(C)CCC4=C(COC4=O)C1CC1OC13C2OC(=O)CCCOC1OC(CO)C(O)C(O)C1O (stereo not shown) | SK-BR-3 | cell growth or viability, XTT | – | 47 h | – | IC50 | 2.16 µM
CCOc1cc(Br)ccc1-n1c(CN2CCNCC2)nc2ccccc2c1=O | PANC-1 | cell growth or viability, ATP luminescence | – | 72 h | – | IC50 | 0.054 µM
CC(C)[C@H]1NC(=O)[C@@H](C)NC(=O)[C@@H](C(C)C)NC(=O)[C@@H](Cc2ccccc2)NC(=O)[C@@H](C(C)C)NC(=O)[C@@H]([C@H](C)O)NC(=O)[C@@H](Cc2ccc(O)cc2)NC(=O)[C@@H](CCCNC(=N)N)NC(=O)[C@@H]2CCCC[C@H]2NC(=O)[C@@H](CO)NC(=O)[C@H](Cc2ccc(O)cc2)NC(=O)CSC[C@@H](C(=O)NCCOCCOCCOCCOCCOCCOCCC(N)=O)NC(=O)[C@@H](CO)NC(=O)[C@@H](C(C)C)NC(=O)[C@@H](Cc2ccc(O)cc2)NC1=O | CFPAC-1 | cell migration | – | 18 h | – | IC50 | ~1 µM
COc1ccccc1-c1n[nH]c2nc(NC3CCN(C(=O)Cc4ccc(F)cc4F)CC3)ncc12 | – | bead binding, competition bead pull-down, measured: LINJ.30.3390 | Leishmania donovani extract | 10 µM | baseline: vehicle | relative abundance | 1.32
CCOc1ccccc1-n1c(C(C)N2CCN(C(=O)COc3ccc(Cl)cc3)CC2)nc2ccccc2c1=O (stereo not shown) | PANC-1 | cell growth or viability, ATP luminescence | – | 72 h | – | IC50 | 1.2 µM
CC(C)=CCc1c(O)cc2c(c1O)C(=O)CC(c1ccc(O)cc1)O2 (stereo not shown) | normal pig cell line | cytotoxicity, MTT | – | 48 h | – | IC50 | 24.4 ± 2.7 µM
CC(=O)N[C@H](C(=O)N[C@@H](CCCNC(=N)N)C(=O)N[C@@H](CCCCN)C(=O)N[C@@H](CCCNC(=N)N)C(=O)N[C@]1(C)CCCCCCC=CCCC[C@@](C)(C(=O)N[C@@H](CCCNC(=N)N)C(=O)N[C@@H](CCC(=O)O)C(=O)N[C@@H](CC(C)C)C(=O)N[C@H](C(=O)N[C@@H](CCC(=O)O)C(N)=O)C(C)C)NC(=O)[C@H](CCC(N)=O)NC(=O)[C@H](CC(C)C)NC(=O)[C@H](CC(C)C)NC(=O)[C@H](CCCNC(=N)N)NC(=O)[C@H](CCCNC(=N)N)NC(=O)[C@H](CC(C)C)NC1=O)C(C)C | H3255 (EGFR L858R) | cell viability | – | 18 h, serum-free | – | IC50 | 0.94 µM
Cc1sc2c(c1C)C(c1ccc(-c3cccc(NC(=O)c4cnn5cccnc45)c3)cc1)=N[C@@H](CC(N)=O)c1nnc(C)n1-2 | NOMO-1 | cell growth or viability, ATP luminescence | – | 72 h | – | IC50 | 0.0095 µM
CC1CCC2C(C)C(OC(=O)CCC(=O)OC3C(C)OC(n4cc(F)c(=O)[nH]c4=O)C3OC(=O)CCC(=O)OC3OC4OC5(C)CCC6C(C)CCC(C3C)C46OO5)OC3OC4(C)CCC1C32OO4 (stereo not shown) | Hep3B | cell growth or viability, CCK-8 | – | – | – | IC50 | 33.6 µM

Structure (SMILES) | target or system | test | system | setting | scale | measurement | value
CCOc1ccccc1-n1c(CN2CCNCC2)nc2ccc(Cl)cc2c1=O | PANC-1 | cell growth or viability, ATP luminescence | – | 72 h | – | IC50 | 1.2 µM
CC(C)C12OC1C1OC13C1(C)CCC4=C(COC4=O)C1CC1OC13C2OC(=O)CCC(=O)OC1OC(CO)C(O)C(O)C1O (stereo not shown) | primary prostate epithelial cells | cell viability, XTT | – | 47 h | – | IC50 | 5.27 µM
CCCCCCCC(=O)NCCCC[C@H](NC(=O)CCCCCCC)C(=O)N[C@@H](CCCCNC(=O)CCCCCCC)C(=O)NCC(=O)NCC(=O)NCC(=O)N[C@@H](CS)C(=O)N[C@@H](CCCNC(=N)N)C(=O)N[C@@H](CCCCN)C(=O)N1CCC[C@H]1C(=O)N[C@@H](CS)C(=O)N[C@@H](CCCNC(=N)N)C(=O)N[C@@H](CCCCN)C(=O)N1CCC[C@H]1C(N)=O | human red blood cells | haemolysis | – | pH 7.4, 37 °C | baseline: Triton X-100 | IC50 | 332 µM
CC(=O)N[C@H](C(=O)N[C@@H](CCCNC(=N)N)C(=O)N[C@@H](CCCCN)C(=O)N[C@@H](CCCNC(=N)N)C(=O)N[C@H](C(=O)N[C@@]1(C)CCCC=CCCC[C@@](C)(C(=O)N[C@@H](CCC(N)=O)C(=O)N[C@@H](CCC(=O)O)C(=O)N[C@@H](CCCNC(=N)N)C(=O)N[C@@H](CCC(=O)O)C(=O)N[C@@H](CC(C)C)C(=O)N[C@H](C(=O)N[C@@H](CCC(=O)O)C(N)=O)C(C)C)NC(=O)[C@H](CC(C)C)NC(=O)[C@H](CCCNC(=N)N)NC(=O)[C@H](CCCNC(=N)N)NC1=O)[C@@H](C)O)C(C)C | H3255 (EGFR L858R) | cell viability, ATP luminescence | – | 18 h | – | IC50 | > 50 µM
CCOc1cc(Cl)ccc1-n1c(CN2CCNCC2)nc2ccccc2c1=O | PANC-1 | cell growth or viability, ATP luminescence | – | 72 h | – | IC50 | 0.036 µM
CC(C)(C)C(=O)OCOP(=O)(OCOC(=O)C(C)(C)C)C1CCCN(O)C1=O (stereo not shown) | NCI-H322M | – | – | – | – | log GI50 | -6.17 log M
CC(=O)N[C@H](C(=O)N[C@@H](CCCNC(=N)N)C(=O)N[C@@H](CCCCN)C(=O)N[C@@H](CCCNC(=N)N)C(=O)N[C@@]1(C)CCCC=CCCC[C@@](C)(C(=O)N[C@@H](CC(C)C)C(=O)N[C@@H](CCC(N)=O)C(=O)N[C@@H](CCC(=O)O)C(=O)N[C@@H](CCCNC(=N)N)C(=O)N[C@@H](CCC(=O)O)C(=O)N[C@@H](CC(C)C)C(=O)N[C@H](C(=O)N[C@@H](CCC(=O)O)C(N)=O)C(C)C)NC(=O)[C@H](CCCNC(=N)N)NC(=O)[C@H](CCCNC(=N)N)NC(=O)[C@H](CC(C)C)NC1=O)C(C)C | SK-N-MC | cell viability | – | 18 h, serum-free | – | IC50 | > 100 µM
[CH3][Ti+2][O]C(=O)c1ccc([S][Au][PH](c2ccccc2)(c2ccccc2)c2ccccc2)cc1.c1cc[cH-]c1.c1cc[cH-]c1 | CAKI-1 | cell growth or viability, XTT | – | 24 h | – | IC50 | 3.37 µM
Cc1cc(Oc2nc(N3CC[C@@H](c4ccncc4)C3)ncc2F)[nH]n1 | PLC-PRF-5 | cell proliferation | liver cancer | – | – | IC50 | 35.5 µM
CCC1(c2ccc(NC(=O)CCC(=O)OC3OC4OC5(C)CCC6C(C)CCC(C3C)C46OO5)cc2)CCC(=O)NC1=O (mixture of isomers) | PC-3 (p53 null) | cell growth, CCK-8 | – | 48 h | – | IC50 | > 50 µM
CC(C)C[C@H](NC(=O)[C@H](CC(N)=O)NC(=O)[C@@H](NC(=O)[C@H](C)NC(=O)[C@@H](NC(=O)[C@H](CCC(=O)O)NC(=O)[C@H](CC(C)C)NC(=O)[C@H](CCCCN)NC(=O)[C@H](CCCCN)NC(=O)[C@H](CCC(=O)O)NC(=O)[C@H](Cc1c[nH]c2ccccc12)NC(=O)[C@@H](NC(=O)[C@H](Cc1c[nH]c2ccccc12)NC(=O)[C@H](CO)NC(=O)CNC(=O)CNC(=O)[C@H](CCCNC(=N)N)NC(=O)[C@H](CCCNC(=N)N)NC(=O)[C@H](CCCNC(=N)N)NC(=O)[C@H](CCC(N)=O)NC(=O)[C@H](CCCNC(=N)N)NC(=O)[C@H](CCCNC(=N)N)NC(=O)[C@H](CCCCN)NC(=O)[C@H](CCCCN)NC(=O)[C@@H](N)CCCNC(=N)N)[C@@H](C)O)[C@@H](C)O)C(C)C)C(=O)N[C@@H](C)C(=O)N[C@@H](Cc1c[nH]c2ccccc12)C(=O)N[C@H](C(=O)N[C@@H](C)C(=O)NCC(=O)N[C@@H](CC(N)=O)C(=O)N[C@@H](CO)C(=O)N[C@@H](CC(N)=O)C(=O)N[C@@H](CCCCN)C(=O)N[C@@H](Cc1c[nH]c2ccccc12)C(=O)N[C@H](C(=O)N[C@@H](Cc1c[nH]c2ccccc12)C(=O)N[C@@H](CCCCN)C(=O)O)[C@@H](C)O)[C@@H](C)O | CLL patient PBMCs | cell death, PI staining flow cytometry | – | 90 min | – | IC50 | 2.8 µM
CCOc1ccc(OCC)c(-n2c(CN3CCNCC3)nc3ccccc3c2=O)c1 | PANC-1 | cell growth or viability, ATP luminescence | – | 72 h | – | IC50 | 8.1 µM
O=C1NC2(CC2)COc2ncc(F)cc2[C@H]2COCCN2c2ccn3ncc1c3n2 | – | – | Sprague-Dawley rat, male, blood | oral, 10 mg/kg/day, end of treatment, 4-week repeated-dose toxicity | baseline: red blood cells | reticulocytes | 2.43 ± 1.95%
CC(=O)N[C@H](C(=O)N[C@@H](CCCNC(=N)N)C(=O)N[C@@H](CCCCN)C(=O)N[C@@H](CCCNC(=N)N)C(=O)N[C@]1(C)CCCCCCC=CCCC[C@@](C)(C(=O)N[C@@H](CCCNC(=N)N)C(=O)N[C@@H](CCC(=O)O)C(=O)N[C@@H](CC(C)C)C(=O)N[C@H](C(=O)N[C@@H](CCC(=O)O)C(N)=O)C(C)C)NC(=O)[C@H](CCC(N)=O)NC(=O)[C@H](C)NC(=O)[C@H](C)NC(=O)[C@H](CCCNC(=N)N)NC(=O)[C@H](CCCNC(=N)N)NC(=O)[C@H](C)NC1=O)C(C)C | SK-N-MC | cell viability | – | 18 h, serum-free | – | IC50 | > 10 µM
CCCCCCCC(=O)NCCCC[C@H](NC(=O)CCCCCCC)C(=O)N[C@@H](CCCCNC(=O)CCCCCCC)C(=O)NCC(=O)NCC(=O)NCC(=O)N[C@@H](CS)C(=O)N[C@@H](CCCNC(=N)N)C(=O)N[C@@H](CCCCN)C(=O)N1CCC[C@H]1C(N)=O | IPEC-J2 | cell growth or viability, MTT | – | 24 h | – | IC50 | 127 µM

A few entries again:
Structure (SMILES) | target or system | test | system | setting | scale | measurement | value
C[C@@H]1COCCN1c1nc(NCc2cccnc2C(F)(F)F)c2cccnc2n1 | HepG2 spheroids | cytotoxicity | – | – | – | IC50 | > 250 µM
COC(=O)[C@@H](NC(=O)[C@@H](NC(=O)[C@@H](NC(=O)[C@@H]1CCCN1C(=O)[C@H](C)NC(=O)OC(C)(C)C)C(C)C)C(C)C)C(C)C | DU-145 | cell growth or viability, SRB | – | – | – | IC50 | 25.6 µM and 18.8 µM and 19.2 µM
CC(=O)[O][Pt]([NH2])([NH2])([Cl])([Cl])[O]C(=O)C(Cl)Cl | PSN1 | cell growth or viability, MTT | – | 72 h | – | IC50 | 0.94 µM
CCOc1ccccc1-n1c(CN2CCNCC2)nc2cc(Br)ccc2c1=O | PANC-1 | cell growth or viability, ATP luminescence | – | 72 h | – | IC50 | 0.39 µM
